Assay results collected from several papers.
A part holds a random share of what one study measured. Values joined by “and” are separate records of one study, mostly repeats; a detail may differ.
Sequence of UniProt P11362 (whole entry, looked up): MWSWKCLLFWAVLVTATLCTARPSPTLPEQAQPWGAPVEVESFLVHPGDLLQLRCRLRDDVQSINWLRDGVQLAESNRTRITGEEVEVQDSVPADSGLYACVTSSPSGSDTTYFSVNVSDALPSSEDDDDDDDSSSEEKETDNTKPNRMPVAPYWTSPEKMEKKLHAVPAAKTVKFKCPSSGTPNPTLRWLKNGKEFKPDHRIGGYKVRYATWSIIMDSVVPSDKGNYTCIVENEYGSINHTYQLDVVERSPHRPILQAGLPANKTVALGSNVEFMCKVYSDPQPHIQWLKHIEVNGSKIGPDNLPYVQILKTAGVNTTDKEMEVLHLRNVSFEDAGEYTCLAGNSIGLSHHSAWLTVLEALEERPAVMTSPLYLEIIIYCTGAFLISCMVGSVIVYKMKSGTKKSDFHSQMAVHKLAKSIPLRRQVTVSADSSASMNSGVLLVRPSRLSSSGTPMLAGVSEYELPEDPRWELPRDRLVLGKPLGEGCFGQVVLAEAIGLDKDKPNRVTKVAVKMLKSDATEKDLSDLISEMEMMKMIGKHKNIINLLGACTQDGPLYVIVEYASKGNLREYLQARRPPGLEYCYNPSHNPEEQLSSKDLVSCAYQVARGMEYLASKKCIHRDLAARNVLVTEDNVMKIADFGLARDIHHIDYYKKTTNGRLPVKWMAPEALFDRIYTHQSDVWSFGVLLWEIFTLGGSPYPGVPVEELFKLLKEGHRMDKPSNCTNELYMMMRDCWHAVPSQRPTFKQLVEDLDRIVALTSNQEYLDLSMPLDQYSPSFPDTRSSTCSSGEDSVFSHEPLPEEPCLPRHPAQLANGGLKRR
Sequence of UniProt O15264 (whole entry, looked up): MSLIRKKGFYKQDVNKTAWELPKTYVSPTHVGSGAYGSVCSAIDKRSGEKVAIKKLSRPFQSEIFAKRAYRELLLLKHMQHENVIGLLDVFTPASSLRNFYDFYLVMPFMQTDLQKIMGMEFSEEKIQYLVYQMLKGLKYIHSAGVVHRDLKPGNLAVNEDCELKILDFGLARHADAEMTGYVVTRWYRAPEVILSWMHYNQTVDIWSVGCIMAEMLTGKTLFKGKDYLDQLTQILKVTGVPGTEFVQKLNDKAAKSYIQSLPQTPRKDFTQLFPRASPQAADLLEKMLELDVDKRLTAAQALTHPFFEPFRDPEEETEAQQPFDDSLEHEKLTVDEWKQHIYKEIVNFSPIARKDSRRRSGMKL
Sequence of UniProt Q04912 (whole entry, looked up): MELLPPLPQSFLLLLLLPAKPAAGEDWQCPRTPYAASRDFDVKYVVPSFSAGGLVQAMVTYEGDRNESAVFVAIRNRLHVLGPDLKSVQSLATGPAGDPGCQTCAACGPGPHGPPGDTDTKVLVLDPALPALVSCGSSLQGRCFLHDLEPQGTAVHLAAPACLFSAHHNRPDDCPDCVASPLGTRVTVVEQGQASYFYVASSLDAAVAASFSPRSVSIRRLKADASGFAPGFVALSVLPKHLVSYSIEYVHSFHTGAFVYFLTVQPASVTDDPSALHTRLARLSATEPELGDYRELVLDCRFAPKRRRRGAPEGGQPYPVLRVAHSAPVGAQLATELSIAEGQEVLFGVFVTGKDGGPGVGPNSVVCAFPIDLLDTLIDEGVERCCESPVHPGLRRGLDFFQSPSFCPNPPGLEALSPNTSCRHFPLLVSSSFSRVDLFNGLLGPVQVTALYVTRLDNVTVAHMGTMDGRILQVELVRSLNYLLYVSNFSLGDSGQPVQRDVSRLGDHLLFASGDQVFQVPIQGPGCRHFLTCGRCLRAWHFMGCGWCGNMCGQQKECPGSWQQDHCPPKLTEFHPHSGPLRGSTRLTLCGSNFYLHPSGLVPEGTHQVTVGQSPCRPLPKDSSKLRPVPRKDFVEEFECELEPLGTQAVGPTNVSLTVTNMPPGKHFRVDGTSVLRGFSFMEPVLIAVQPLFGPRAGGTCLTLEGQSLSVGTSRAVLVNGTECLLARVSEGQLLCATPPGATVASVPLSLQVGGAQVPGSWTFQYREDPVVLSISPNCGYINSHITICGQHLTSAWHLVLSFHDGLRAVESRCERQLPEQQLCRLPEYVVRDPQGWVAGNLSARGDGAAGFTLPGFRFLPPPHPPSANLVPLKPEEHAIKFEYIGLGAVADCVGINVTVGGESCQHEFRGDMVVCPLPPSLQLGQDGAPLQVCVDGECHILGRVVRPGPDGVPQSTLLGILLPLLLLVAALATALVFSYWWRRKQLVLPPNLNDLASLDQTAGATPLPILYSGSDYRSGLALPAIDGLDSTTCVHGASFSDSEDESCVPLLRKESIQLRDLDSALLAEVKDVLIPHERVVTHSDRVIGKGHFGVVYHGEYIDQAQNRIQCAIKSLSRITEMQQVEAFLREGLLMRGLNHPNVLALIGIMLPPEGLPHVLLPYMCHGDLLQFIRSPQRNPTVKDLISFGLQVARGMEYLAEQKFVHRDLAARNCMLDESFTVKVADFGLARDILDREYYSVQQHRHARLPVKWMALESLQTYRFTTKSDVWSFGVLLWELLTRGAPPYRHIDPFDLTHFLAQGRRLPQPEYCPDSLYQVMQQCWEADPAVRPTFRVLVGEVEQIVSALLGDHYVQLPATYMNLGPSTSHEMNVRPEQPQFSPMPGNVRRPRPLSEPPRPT

Set 1
SMILES: C[C@@H]1CN(c2ccc(-c3cc(C(=O)NCCOCCOCCOCCOCCNC(=O)/C=C/c4[nH]cc(C(=O)N[C@@H](CC(N)=O)c5ccc(F)c(Cl)c5)c4-c4ccc(Cl)cc4F)ccc3F)cc2NC(=O)c2c[nH]c(=O)cc2C(F)(F)F)C[C@H](C)N1C
Observed: thermal unfolding
Technique: differential scanning fluorimetry
Concentration: 5.5 µM
Reading: higher = more unfolded
DCAF1: DDB1- and CUL4-associated factor 1 (DCAF1, Homo sapiens, UniProt Q9Y4B6)
Sequence of UniProt Q9Y4B6 (whole entry, looked up): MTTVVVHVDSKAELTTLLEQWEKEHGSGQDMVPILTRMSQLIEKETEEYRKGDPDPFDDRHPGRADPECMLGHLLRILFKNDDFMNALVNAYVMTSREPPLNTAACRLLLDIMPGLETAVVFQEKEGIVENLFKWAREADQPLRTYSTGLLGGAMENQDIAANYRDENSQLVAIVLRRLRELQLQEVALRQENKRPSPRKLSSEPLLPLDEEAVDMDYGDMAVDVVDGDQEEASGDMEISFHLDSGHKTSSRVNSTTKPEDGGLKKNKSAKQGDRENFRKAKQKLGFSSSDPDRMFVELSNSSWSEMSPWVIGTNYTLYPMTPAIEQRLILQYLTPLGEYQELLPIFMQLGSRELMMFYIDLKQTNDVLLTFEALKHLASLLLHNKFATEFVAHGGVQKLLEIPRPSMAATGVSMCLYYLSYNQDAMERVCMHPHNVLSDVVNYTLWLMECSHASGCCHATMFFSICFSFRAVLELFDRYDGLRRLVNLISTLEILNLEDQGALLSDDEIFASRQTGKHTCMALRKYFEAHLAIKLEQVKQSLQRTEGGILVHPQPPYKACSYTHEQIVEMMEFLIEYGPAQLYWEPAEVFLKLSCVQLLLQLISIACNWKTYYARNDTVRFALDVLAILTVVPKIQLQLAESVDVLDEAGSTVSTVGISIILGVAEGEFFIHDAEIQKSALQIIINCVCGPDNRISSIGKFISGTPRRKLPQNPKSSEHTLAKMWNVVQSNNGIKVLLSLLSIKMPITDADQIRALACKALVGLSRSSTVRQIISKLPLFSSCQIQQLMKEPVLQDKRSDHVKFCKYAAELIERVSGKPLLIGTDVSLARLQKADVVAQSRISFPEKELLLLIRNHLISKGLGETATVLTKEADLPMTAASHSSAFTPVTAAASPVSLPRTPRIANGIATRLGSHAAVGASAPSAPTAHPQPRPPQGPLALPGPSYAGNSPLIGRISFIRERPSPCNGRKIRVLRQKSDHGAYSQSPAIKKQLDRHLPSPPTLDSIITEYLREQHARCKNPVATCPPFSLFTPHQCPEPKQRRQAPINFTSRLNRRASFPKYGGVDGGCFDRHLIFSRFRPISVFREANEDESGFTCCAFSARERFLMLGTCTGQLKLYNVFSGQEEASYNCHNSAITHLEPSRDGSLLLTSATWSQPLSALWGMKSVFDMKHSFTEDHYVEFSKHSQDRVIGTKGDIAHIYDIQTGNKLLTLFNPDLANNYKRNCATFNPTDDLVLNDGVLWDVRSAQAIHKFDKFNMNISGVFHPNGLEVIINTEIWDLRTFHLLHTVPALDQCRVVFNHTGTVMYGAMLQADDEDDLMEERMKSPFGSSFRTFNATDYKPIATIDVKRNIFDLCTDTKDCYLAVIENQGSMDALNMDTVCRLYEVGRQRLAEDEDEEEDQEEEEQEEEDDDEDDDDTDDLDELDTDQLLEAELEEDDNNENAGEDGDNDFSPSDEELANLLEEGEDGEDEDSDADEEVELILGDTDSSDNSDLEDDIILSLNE
WDR5: WD repeat-containing protein 5 (WDR5, Homo sapiens, UniProt P61964)
The “SYPRO Orange fluorescence” was 12500 a.u. (DCAF1; 43.4 °C).
For WDR5; 31.6 °C: “SYPRO Orange fluorescence” read 12700 a.u.
For WDR5; 32.8 °C: “SYPRO Orange fluorescence” read 12800 a.u.
The “SYPRO Orange fluorescence” was 52800 a.u. (WDR5; 88.41 °C).
For DCAF1; 69.61 °C: “SYPRO Orange fluorescence” read 56300 a.u.
DCAF1; 52.01 °C — “SYPRO Orange fluorescence”: 16900 a.u.
The “SYPRO Orange fluorescence” was 42700 a.u. (WDR5; 80.81 °C).
For DCAF1; 76.01 °C: “SYPRO Orange fluorescence” read 48900 a.u.

Set 2
SMILES: Cc1ncsc1-c1ccc(C(CO)NC(=O)C2CC(O)CN2C(=O)C(C(C)C)n2cc(-c3ccc(COc4c(-c5c(C)c(F)cc6[nH]ncc56)c(C5CC5)cc5c(N6CC7CC6CN7)nc(OC6CCOCC6)nc45)cc3)nn2)cc1 (centres unmarked)
Time: 6 days
AsPC-1; CellTiter-Glo; 300 pM; baseline: DMSO — viability: 94.1% and 105% and 93.3%.
COLO 320; cell growth or viability, ATP luminescence; 3 nM — viability: 91.7% and 91% and 84.6% and 88%.
The viability was 141% and 103% and 101% and 100% (PaTu 8902; cell growth or viability, ATP luminescence; 10 nM).
The viability was 1.3% and 1.32% and 2.71% and 0.976% (HPAC; cell growth or viability, ATP luminescence; 3 µM).
It gave 73.3% and 76.1% and 77.8% and 76.4% for viability (HT-29; cell growth or viability, ATP luminescence; 10 µM).
For COLO 320; cell growth or viability, ATP luminescence; 3 µM: viability read 91.9% and 88% and 86.1% and 88.5%.
For AsPC-1; CellTiter-Glo; 30 nM; baseline: DMSO: viability read 36.2% and 31.3% and 39.2%.

Set 3
SMILES: CNc1ncc2cc(-c3cc(OC)cc(OC)c3Cl)c(=O)n(CCc3ccc(NC(=O)C(C#N)=CC(C)(C)N4CCOCC4)cc3)c2n1
Observed: kinase activity
MARK1: Serine/threonine-protein kinase MARK1 (MARK1, Homo sapiens, UniProt Q9P0L2)
Sequence of UniProt Q9P0L2 (whole entry, looked up): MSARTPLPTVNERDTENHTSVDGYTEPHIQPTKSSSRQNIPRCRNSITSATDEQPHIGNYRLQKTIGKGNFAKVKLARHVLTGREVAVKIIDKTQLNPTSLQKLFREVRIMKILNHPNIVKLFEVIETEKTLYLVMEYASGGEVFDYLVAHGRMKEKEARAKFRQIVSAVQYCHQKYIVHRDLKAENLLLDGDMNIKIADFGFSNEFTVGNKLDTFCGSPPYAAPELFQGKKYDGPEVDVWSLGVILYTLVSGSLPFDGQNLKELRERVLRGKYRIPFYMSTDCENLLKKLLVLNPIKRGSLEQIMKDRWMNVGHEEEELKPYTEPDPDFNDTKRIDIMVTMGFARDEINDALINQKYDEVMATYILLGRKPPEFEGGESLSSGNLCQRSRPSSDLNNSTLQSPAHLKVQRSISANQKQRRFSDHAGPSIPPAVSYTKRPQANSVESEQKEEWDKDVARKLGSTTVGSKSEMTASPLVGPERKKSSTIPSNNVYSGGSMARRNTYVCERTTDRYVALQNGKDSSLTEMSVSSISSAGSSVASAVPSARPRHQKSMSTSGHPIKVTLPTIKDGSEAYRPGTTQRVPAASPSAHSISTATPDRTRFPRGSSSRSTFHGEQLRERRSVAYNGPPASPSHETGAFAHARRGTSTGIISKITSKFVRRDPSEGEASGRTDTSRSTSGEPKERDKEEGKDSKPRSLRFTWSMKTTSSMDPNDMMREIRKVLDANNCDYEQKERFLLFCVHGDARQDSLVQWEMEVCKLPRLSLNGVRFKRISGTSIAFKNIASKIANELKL
For LATS2 (Homo sapiens, UniProt Q9NRM7); 0.1 µM: inhibition read 0%.
MARK1; 1 µM — inhibition: 0%.
It gave 2% for inhibition (PIM2 (Homo sapiens, UniProt Q9P1W9); 1 µM).
For DYRK1B (Homo sapiens, UniProt Q9Y463); 0.1 µM: inhibition read 6%.
The inhibition was 2% (MST1R (Homo sapiens, UniProt Q04912); 1 µM).
MAPK13 (Homo sapiens, UniProt O15264); 1 µM — inhibition: 2%.
PKN2 (Homo sapiens, UniProt Q16513); 1 µM — inhibition: 0%.
The inhibition was -4% (Cyclin-dependent kinase 5, with p25 (CDK5, Homo sapiens, UniProt Q00535); 0.1 µM).
It gave 3% for inhibition (PRKG1 (Homo sapiens, UniProt Q13976); 1 µM).
For FGFR1 (Homo sapiens, UniProt P11362); 1 µM: inhibition read 98%.
For SRPK2 (Homo sapiens, UniProt P78362); 1 µM: inhibition read -2%.
For MARK1; 0.1 µM: inhibition read 1%.
IRAK1 (Homo sapiens, UniProt P51617); 1 µM — inhibition: -8%.
CSNK1G3 (Homo sapiens, UniProt Q9Y6M4); 0.1 µM — inhibition: 1%.

Set 4
Species: female CD-1 mouse
Medium: plasma
Route: intravenous
Dose: 1 mg/kg
`Cc1ccc(O)c(C)c1-c1cnc2[nH]c(-c3cnc(N4CCC(CCN5CCN(c6ccc(NC7CCC(=O)NC7=O)cc6F)CC5)CC4)nc3)cc2c1C#N` (centres unmarked) has a Vd of 4.5 L/kg.
`Cc1ccc(O)c(C)c1-c1cnc2[nH]c(-c3cnc(N4CCC(CN5CCC(c6ccc(NC7CCC(=O)NC7=O)cc6F)CC5)CC4)nc3)cc2c1C#N` (centres unmarked) gave a Vd of 4.2 L/kg.
The Vd of `Cc1ccc(O)c(C)c1-c1cnc2[nH]c(-c3cnc(N4CCC(CN5CCN(c6cc7c(cc6F)c(N6CCC(=O)NC6=O)nn7C)CC5)CC4)nc3)cc2c1C#N` is reported as 2.1 L/kg.
With `Cc1ccc(O)c(C)c1-c1cnc2[nH]c(-c3cnc(N4CCC(CN5CCN(c6ccc7c(c6)C(=O)N(C6CCC(=O)NC6=O)C7=O)CC5)CC4)nc3)cc2c1C#N` (centres unmarked) the Vd was 3.6 L/kg.
For `Cc1ccc(O)c(C)c1-c1cnc2[nH]c(-c3cnc(N4CCC5(CC4)CC(N4CCN(c6ccc(N[C@H]7CCC(=O)NC7=O)cc6F)CC4)CO5)nc3)cc2c1C#N` (single isomer, unassigned), the Vd was 6.6 L/kg.
With `Cc1ccc(O)c(C)c1-c1cnc2[nH]c(-c3cnc(N4CCC(CN5CCN(c6ccc7c(c6)CN(C6CCC(=O)NC6=O)C7=O)CC5)CC4)nc3)cc2c1C#N` (centres unmarked) the Vd was 1.3 L/kg.

Excerpt of the above (set 3):
PKN2 (Homo sapiens, UniProt Q16513); 1 µM — inhibition: 0%.
The inhibition was -4% (Cyclin-dependent kinase 5, with p25 (CDK5, Homo sapiens, UniProt Q00535); 0.1 µM).
It gave 3% for inhibition (PRKG1 (Homo sapiens, UniProt Q13976); 1 µM).
For FGFR1 (Homo sapiens, UniProt P11362); 1 µM: inhibition read 98%.
For SRPK2 (Homo sapiens, UniProt P78362); 1 µM: inhibition read -2%.
